# Assay results pooled from the literature.
# Each line is one published result; not all experiments were run side by side. ± gives the spread as reported.
Molecule,organism,assay,system,conditions,EC50
CCOC(=O)C1=C(CN2CCOCC2)NC(c2nccs2)=NC1c1ccc(F)cc1Br (stereo not shown),hepatitis B virus,"viral replication, chemiluminescence immunoassay, refers to: secreted HBeAg",HBV-infected HepG2-NTCP cells,"7 days post-infection, dosed from 24 h pre-infection",804 ± 45 nM
CC(C)S(=O)(=O)n1c(N)nc2ccc(/C(=N/O)c3ccccc3)cc21,Enterovirus A71,"cytopathic effect, neutral red uptake","RD, Tainan/4643/98","37 °C, no MgCl2",1000 ± 1100 nM
O=C(/C=C/c1ccc(CN2CCCCC2)c(O)c1)c1ccc(F)cc1,Plasmodium knowlesi,parasite growth,,"24 h, blood stage",2640 nM
Nc1nc2c(ncn2COCCO)c(=O)[nH]1,Human alphaherpesvirus 1,plaque formation,"Vero, KOS","55 h, 1% DMSO",810 nM
interferon alfa,hepatitis B virus,"immunofluorescence, refers to: HBcAg",HBV-infected HepG2-NTCP,"7 days post-infection, dosed before, during, after",320 ± 67 nM
O=C(/C=C/c1ccc(O)c(CN2CCOCC2)c1)c1ccc(F)cc1,Plasmodium knowlesi,parasite growth,,"24 h, blood stage",24600 nM
CC1(C)[C@@H](O[C@H]2O[C@H](C(=O)O)[C@@H](O)[C@H](O)[C@H]2O[C@@H]2O[C@H](C(=O)O)[C@@H](O)[C@H](O)[C@H]2O)CC[C@]2(C)[C@H]3C(=O)C=C4[C@@H]5C[C@@](C)(C(=O)O)CC[C@]5(C)CC[C@@]4(C)[C@]3(C)CC[C@@H]12,Epstein-Barr virus,"viral genome copies, quantitative PCR",superinfected Raji cells,24 h,30000 ± 5000 nM
O=[N+]([O-])c1cn2c(n1)OC[C@H](Oc1ccc(OC(F)(F)F)cc1)C2,Leishmania tropica,parasite growth,mouse Peritoneal macrophage,"72 h, intracellular, amastigote",1330 nM
NC(=O)c1ncn([C@@H]2O[C@H](CO)[C@@H](O)[C@H]2O)n1,dengue virus 2,"viral infection, immunodetection","A549, TSV01",48 h,3000 nM
O=C(/C=C/c1ccc(O)cc1)c1ccc(F)cc1,Plasmodium knowlesi,parasite growth,,"24 h, blood stage",78900 nM
O=c1[nH]c(=O)c2ncn(CC(CO)OCP(=O)(O)O)c2[nH]1 (racemic),human cytomegalovirus,cytopathic effect,"HEL, Davis",,48600 ± 24200 nM
CC1CCN(Cc2cc(/C=C/C(=O)c3ccc(Cl)cc3)ccc2O)CC1,Plasmodium knowlesi,parasite growth,,"24 h, blood stage",19900 nM
N=C(N)N,Enterovirus A71,"cytopathic effect, inhibitor, neutral red uptake","RD cells, Tainan/4643/98","37 °C, no MgCl2",305000 ± 5000 nM
CNC(=O)c1ccc(-c2cnn3ccc(C(=O)N(CCC(=O)OCC(=O)N(C)C)c4ccc(Cl)cc4)cc23)cc1,Cryptosporidium parvum,cytopathic effect,HCT-8,48 h,> 20000 nM
C#CCNC(=O)C(=O)c1c(C)c(C(=O)Nc2ccc(F)c(F)c2)n(C)c1C,hepatitis B virus,"viral replication, immunofluorescence, refers to: HBcAg",HBV-infected HepG2-NTCP cells,"7 days post-infection, dosed from 24 h pre-infection",1280 ± 902 nM
COc1cc(/C=C2\CC/C(=C\c3ccc(O)c(OC)c3)C2=O)ccc1O,dengue virus 2,viral replication,BHK-21 DENV2 replicon,24 h,29200 ± 4460 nM

# A few entries again:
Molecule,organism,assay,system,conditions,EC50
O=C(/C=C/c1ccc(O)c(CN2CCOCC2)c1)c1ccc(F)cc1,Plasmodium knowlesi,parasite growth,,"24 h, blood stage",24600 nM
